{"data": "Experimental data pooled from the literature", "note": "Each numbered part is a random draw from the data of one study; scales do not carry over between parts. Positions count from the first letter of the parent shown."}
{"data": "Sample 1", "target": "Histone acetyltransferase KAT6A, winged helix 2, GST fusion (KAT6A, Homo sapiens, UniProt Q92794, residues 85-181)", "method": "protein binding microarray", "molecule type": "double-stranded DNA, one strand shown", "sample": "in vitro", "concentration": "not given", "setting": "8-mer, flanks averaged, mean of 2 arrays, mostly near background", "baseline": "not given", "reading": "higher = stronger binding", "Target sequence (chain)": "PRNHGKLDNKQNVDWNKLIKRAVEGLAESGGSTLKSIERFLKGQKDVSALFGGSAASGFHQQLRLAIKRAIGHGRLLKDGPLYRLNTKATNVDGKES"}
{"Sequence": "CCGAATCA", "E-score": 0.143}
{"Sequence": "GAAGAAGC", "E-score": -0.0229}
{"Sequence": "GCTGTGGA", "E-score": 0.184}
{"Sequence": "AAACTCAA", "E-score": 0.097}
{"Sequence": "TCAATAAA", "E-score": 0.0551}
{"Sequence": "AGGCCCGG", "E-score": -0.115}
{"Sequence": "CAATTGGC", "E-score": 0.0355}
{"Sequence": "CGCAAAGA", "E-score": 0.0435}
{"Sequence": "CGTTACTA", "E-score": -0.163}
{"Sequence": "GCTCCTAA", "E-score": -0.039}
{"Sequence": "GGCGGTAC", "E-score": 0.0392}
{"Sequence": "AATCCGGC", "E-score": 0.117}
{"Sequence": "CAGCCTTA", "E-score": -0.101}
{"Sequence": "CATTTGGG", "E-score": -0.00451}
{"Sequence": "CGCTTATC", "E-score": -0.0125}
{"Sequence": "TAGGGGAA", "E-score": -0.163}
{"Sequence": "CGGAGAAG", "E-score": 0.101}
{"Sequence": "GCCGTGTA", "E-score": -0.13}
{"Sequence": "AGACACGC", "E-score": 0.107}
{"Sequence": "CCTCCCCC", "E-score": -0.0446}
{"Sequence": "AAACGGTG", "E-score": 0.0642}
{"Sequence": "ATGACGCC", "E-score": -0.0153}
{"Sequence": "AGCCGCTA", "E-score": 0.0511}
{"Sequence": "CAACGACG", "E-score": -0.0478}
{"Sequence": "AGAATGTC", "E-score": -0.252}
{"data": "Sample 2", "target": "Fragile X messenger ribonucleoprotein 1, C-terminal low-complexity region (Fmr1, Mus musculus, UniProt P35922)", "method": "RNA Bind-n-Seq", "molecule type": "RNA", "sample": "in vitro", "concentration": "200 nM", "setting": "whole 134-nt RNA, ends assumed", "together with": "150 mM KCl", "baseline": "input library", "reading": "higher = stronger binding", "shared flanks, not repeated": "GGGAGUUCUACAGUCCGACGAUC … UGGAAUUCUCGGGUGUCAAGG"}
{"Sequence": "GUCCUGUGCUACACAUCGUAUGUACCGAAUCGGUUUUUUGGGUUUUUUGGGUUUUUUGGAAAGUAUUAUGUUACGCCGUUCGGAUCUGCA", "log2 enrichment": -0.525}
{"Sequence": "UUAUAAUUGAUGAUCAUCCUGAAGUAACAGUAAUUGAAGAUCCCCAGUCAAAUUUGAAUGAUGAUGGUUUUACUGAAGUGGUAUCCAAAA", "log2 enrichment": -0.67}
{"Sequence": "UCCUGUGCUACACAUCGUAUGUACCGAAUCGGGGAGGGGUUUUUUUGGGGAAAAAGGGGAAAGUAUUAUGUUACGCCGUUCGGAUCUGCA", "log2 enrichment": 0.69}
{"Sequence": "AGAUGAACAAGAGAACUGGGCAACCCAUGAUCCACAUCUACCUGGACAAGGAAACAGGAAAGCCCAAAGGCGAUGCCACAGUGUCCUAUG", "log2 enrichment": -1.22}
{"Sequence": "UGGGAGGUGGAUUUUGUUUAUUUUUUAAGCUCAUUUCCAGGGGUGGGAAUUUUUUUUUAAUAUGUGUCAUGAAUAAAGUUGUUUUUGAAA", "log2 enrichment": 0.104}
{"Sequence": "AGUCCUGUGCUACACAUCGUAUGUACCGAAUCGGGUUUGGGAAAGGGAAAAAAAGGGAAAGUAUUAUGUUACGCCGUUCGGAUCUGCACU", "log2 enrichment": 0.308}
{"Sequence": "CCUGUGCUACACAUCGUAUGUACCGAAUCGGGAAAAAAAGGGUUUUUUUGGGAAAAAGGGAAAGUAUUAUGUUACGCCGUUCGGAUCUGC", "log2 enrichment": -0.956}
{"Sequence": "UGGGAGGUGGAUUUUGUUUAUUUCUUUAGCUCAUUUCCAGGGGUGGGAAUUUUUUUUUAAUAUGUGUCAUGAAUAAAGUUGUUUUUGAAA", "log2 enrichment": 0.272}
{"Sequence": "UUUAGACAGAAACAAGAAGCAACAGAGUCCCUUAAGUGCCAAGAGGAACUUCGAGAGCGCCUUCAUGAGGAGUCCAGGGCCAGAGAACAG", "log2 enrichment": -0.831}
{"Sequence": "UCAAGUCCUGUGCUACACAUCGUAUGUACCGAAUCGGGAGGGUUUGGGAAAGGGAAAGUAUUAUGUUACGCCGUUCGGAUCUGCACUUCC", "log2 enrichment": 1.22}
{"data": "Sample 3", "target": "BATF3, bZIP domain (human)", "method": "DHFR protein complementation", "sample": "yeast", "setting": "single substitutions, most at no-binding floor", "baseline": "wild-type JUN-FOS pair", "reading": "higher = stronger binding", "parent": "JUN, bZIP domain (human); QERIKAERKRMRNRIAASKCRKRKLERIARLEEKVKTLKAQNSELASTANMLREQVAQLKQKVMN; partner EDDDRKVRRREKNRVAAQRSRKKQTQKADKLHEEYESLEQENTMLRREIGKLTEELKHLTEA"}
{"Substitution": "M51D", "binding fitness": "0.264 natural log"}
{"Substitution": "L45P", "binding fitness": "-0.993 natural log"}
{"Substitution": "S47L", "binding fitness": "0.212 natural log"}
{"Substitution": "R53Q", "binding fitness": "0.073 natural log"}
{"Substitution": "L31F", "binding fitness": "0.188 natural log"}
{"Substitution": "A46E", "binding fitness": "0.184 natural log"}
{"Substitution": "A29Y", "binding fitness": "0.0862 natural log"}
{"Substitution": "L52H", "binding fitness": "-0.484 natural log"}
{"Substitution": "T48F", "binding fitness": "0.0596 natural log"}
{"Substitution": "M51G", "binding fitness": "0.235 natural log"}
{"Substitution": "K36S", "binding fitness": "0.238 natural log"}
{"Substitution": "S47I", "binding fitness": "0.186 natural log"}
{"Substitution": "V56F", "binding fitness": "-0.0413 natural log"}
{"Substitution": "A29W", "binding fitness": "0.0798 natural log"}
{"Substitution": "E44D", "binding fitness": "0.046 natural log"}
{"Substitution": "T48H", "binding fitness": "0.192 natural log"}
{"Substitution": "I28K", "binding fitness": "0.233 natural log"}
{"Substitution": "R30T", "binding fitness": "0.349 natural log"}
{"data": "Sample 4", "target": "ABI1, truncated, D143A, DHFR fusion (Arabidopsis thaliana)", "method": "DHFR PCA, deep sequencing", "sample": "yeast", "setting": "methotrexate growth selection, single substitutions", "together with": "(+)-ABA 0.032 µM", "baseline": "wild-type fitted maximum", "reading": "higher = stronger binding", "parent": "PYL1, truncated, DHFR fusion (Arabidopsis thaliana); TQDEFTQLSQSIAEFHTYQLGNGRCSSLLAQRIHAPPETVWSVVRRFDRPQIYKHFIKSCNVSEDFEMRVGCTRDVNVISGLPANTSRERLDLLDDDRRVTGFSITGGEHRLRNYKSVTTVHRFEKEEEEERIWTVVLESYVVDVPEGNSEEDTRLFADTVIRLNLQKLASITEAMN"}
{"Substitution": "E128F", "relative binding score": "13.1%"}
{"Substitution": "F47L", "relative binding score": "-2.92%"}
{"Substitution": "D96M", "relative binding score": "-0.2%"}
{"Substitution": "T173D", "relative binding score": "-4.71%"}
{"Substitution": "T39P", "relative binding score": "8.24%"}
{"Substitution": "V76S", "relative binding score": "-1.34%"}
{"Substitution": "R163I", "relative binding score": "-13.9%"}
{"Substitution": "R24H", "relative binding score": "7.29%"}
{"Substitution": "C60E", "relative binding score": "-1.14%"}
{"Substitution": "A170M", "relative binding score": "-2.89%"}
{"Substitution": "S171V", "relative binding score": "12.3%"}
{"Substitution": "H110P", "relative binding score": "71.6%"}
{"Substitution": "G71F", "relative binding score": "-2.14%"}
{"Substitution": "M68A", "relative binding score": "-3.4%"}
{"Substitution": "N149D", "relative binding score": "11.9%"}
{"Substitution": "R123E", "relative binding score": "37.6%"}
{"Substitution": "F56I", "relative binding score": "-0.595%"}
{"data": "Sample 5", "target": "CCND1, cyclin fold, Cln2 fusion (human)", "method": "yeast growth competition, sequencing", "sample": "yeast", "setting": "weak parent motif", "baseline": "not given", "reading": "higher = stronger binding", "parent": "MASTL docking peptide (human); PMIAKNLMCELDE"}
{"Substitution": "PMKAKNLMCELDE [I3K]", "normalised enrichment score": 0.187}
{"Substitution": "PMIAPNLMCELDE [K5P]", "normalised enrichment score": 0.258}
{"Substitution": "PMIAKNLMCNLDE [E10N]", "normalised enrichment score": 0.0644}
{"Substitution": "PMSAKNLMCELDE [I3S]", "normalised enrichment score": -0.161}
{"Substitution": "PMIAKNLMCELCE [D12C]", "normalised enrichment score": 0.188}
{"Substitution": "PMIAKNWMCELDE [L7W]", "normalised enrichment score": 0.237}
{"Substitution": "PMIAKNLMCELME [D12M]", "normalised enrichment score": 0.325}
{"Substitution": "PMIAKNLKCELDE [M8K]", "normalised enrichment score": 0.253}
{"Substitution": "PQIAKNLMCELDE [M2Q]", "normalised enrichment score": 0.386}
{"Substitution": "PMIAKNAMCELDE [L7A]", "normalised enrichment score": -0.241}
{"Substitution": "PMIATNLMCELDE [K5T]", "normalised enrichment score": -0.223}
{"Substitution": "PMIASNLMCELDE [K5S]", "normalised enrichment score": -0.63}
{"Substitution": "PMIAKNLMKELDE [C9K]", "normalised enrichment score": -0.0361}
{"Substitution": "PMIAKNLMCELKE [D12K]", "normalised enrichment score": 0.0477}
{"Substitution": "PPIAKNLMCELDE [M2P]", "normalised enrichment score": 0.378}
{"Substitution": "PMIAKGLMCELDE [N6G]", "normalised enrichment score": -0.102}
{"Substitution": "PMIAKNLMCENDE [L11N]", "normalised enrichment score": 0.16}
{"Substitution": "PMIAKNLMCELTE [D12T]", "normalised enrichment score": 0.204}
{"Substitution": "PMIADNLMCELDE [K5D]", "normalised enrichment score": 0.242}
{"Substitution": "PMIAKNLMCGLDE [E10G]", "normalised enrichment score": -0.00454}
{"Substitution": "PMIAKNLMCELYE [D12Y]", "normalised enrichment score": -0.32}
{"Substitution": "PMIAKNSMCELDE [L7S]", "normalised enrichment score": 0.0634}
{"Substitution": "PMIAKNLMCELSE [D12S]", "normalised enrichment score": 0.0334}
{"Substitution": "PRIAKNLMCELDE [M2R]", "normalised enrichment score": 0.256}
{"Substitution": "PMIAKNLMCQLDE [E10Q]", "normalised enrichment score": 0.24}
{"data": "Mixed results"}
{"Molecule": "PhoQ, residues 284 288 289 292 302 303 SMMNNA", "target": "PhoP, residues 12 14 15 18 19 LQHIR (Escherichia coli, UniProt P23836)", "assay": "Sort-seq, item: YFP reporter", "system": "E. coli", "conditions": "PhoQ-PhoP variant library, together with: 10 µM Mg2+", "how to read": "baseline: high Mg2+ state, higher = stronger signaling", "quantity": "fold induction", "value": 18}
{"note": "Repeated from above (sample 3):"}
{"Substitution": "L52H", "binding fitness": "-0.484 natural log"}
{"Substitution": "S47I", "binding fitness": "0.186 natural log"}
{"Substitution": "A29Y", "binding fitness": "0.0862 natural log"}
{"Substitution": "T48F", "binding fitness": "0.0596 natural log"}
{"Substitution": "A46E", "binding fitness": "0.184 natural log"}
{"Substitution": "E44D", "binding fitness": "0.046 natural log"}
{"Substitution": "V56F", "binding fitness": "-0.0413 natural log"}
{"Substitution": "I28K", "binding fitness": "0.233 natural log"}
{"Substitution": "M51D", "binding fitness": "0.264 natural log"}
